Measurements from different studies.
Parts stem from different laboratories: compare values within a part only.
Chain of UniProt P54252 (whole entry, looked up): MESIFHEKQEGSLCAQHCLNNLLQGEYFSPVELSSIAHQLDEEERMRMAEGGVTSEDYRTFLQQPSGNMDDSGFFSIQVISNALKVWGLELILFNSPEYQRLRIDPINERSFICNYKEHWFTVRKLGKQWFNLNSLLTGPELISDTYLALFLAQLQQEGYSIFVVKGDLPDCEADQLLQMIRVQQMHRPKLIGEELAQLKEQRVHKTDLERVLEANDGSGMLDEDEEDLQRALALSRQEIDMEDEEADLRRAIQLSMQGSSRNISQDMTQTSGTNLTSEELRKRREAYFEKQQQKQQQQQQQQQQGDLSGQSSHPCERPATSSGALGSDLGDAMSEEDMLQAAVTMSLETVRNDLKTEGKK
Chain of UniProt P09936 (whole entry, looked up): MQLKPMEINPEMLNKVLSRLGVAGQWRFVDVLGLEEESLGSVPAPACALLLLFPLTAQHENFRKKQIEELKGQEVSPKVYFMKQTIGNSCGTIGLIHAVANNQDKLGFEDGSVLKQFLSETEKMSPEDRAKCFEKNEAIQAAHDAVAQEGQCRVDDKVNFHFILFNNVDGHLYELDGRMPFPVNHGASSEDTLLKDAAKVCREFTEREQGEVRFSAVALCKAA
Chain of UniProt P21580 (whole entry, looked up): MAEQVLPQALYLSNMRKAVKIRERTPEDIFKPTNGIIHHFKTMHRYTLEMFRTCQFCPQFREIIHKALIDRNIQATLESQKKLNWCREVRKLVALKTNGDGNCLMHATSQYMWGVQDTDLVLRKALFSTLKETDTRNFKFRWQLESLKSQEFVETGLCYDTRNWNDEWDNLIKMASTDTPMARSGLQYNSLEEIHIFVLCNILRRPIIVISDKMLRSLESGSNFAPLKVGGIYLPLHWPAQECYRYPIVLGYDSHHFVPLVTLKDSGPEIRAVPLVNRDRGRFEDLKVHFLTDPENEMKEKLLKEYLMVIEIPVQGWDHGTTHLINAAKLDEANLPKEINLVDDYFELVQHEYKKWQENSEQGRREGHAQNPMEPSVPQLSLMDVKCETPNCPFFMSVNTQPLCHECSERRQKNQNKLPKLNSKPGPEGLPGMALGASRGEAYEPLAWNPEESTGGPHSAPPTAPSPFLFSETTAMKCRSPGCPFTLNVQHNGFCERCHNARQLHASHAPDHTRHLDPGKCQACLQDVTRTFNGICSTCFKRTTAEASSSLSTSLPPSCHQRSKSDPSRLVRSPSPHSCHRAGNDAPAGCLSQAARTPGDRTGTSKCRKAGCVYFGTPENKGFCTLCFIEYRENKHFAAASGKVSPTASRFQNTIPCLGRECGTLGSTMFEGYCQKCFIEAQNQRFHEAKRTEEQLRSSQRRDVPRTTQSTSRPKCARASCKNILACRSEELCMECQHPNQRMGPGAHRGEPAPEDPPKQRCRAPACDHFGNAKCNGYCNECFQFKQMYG
Chain of UniProt P42685 (whole entry, looked up): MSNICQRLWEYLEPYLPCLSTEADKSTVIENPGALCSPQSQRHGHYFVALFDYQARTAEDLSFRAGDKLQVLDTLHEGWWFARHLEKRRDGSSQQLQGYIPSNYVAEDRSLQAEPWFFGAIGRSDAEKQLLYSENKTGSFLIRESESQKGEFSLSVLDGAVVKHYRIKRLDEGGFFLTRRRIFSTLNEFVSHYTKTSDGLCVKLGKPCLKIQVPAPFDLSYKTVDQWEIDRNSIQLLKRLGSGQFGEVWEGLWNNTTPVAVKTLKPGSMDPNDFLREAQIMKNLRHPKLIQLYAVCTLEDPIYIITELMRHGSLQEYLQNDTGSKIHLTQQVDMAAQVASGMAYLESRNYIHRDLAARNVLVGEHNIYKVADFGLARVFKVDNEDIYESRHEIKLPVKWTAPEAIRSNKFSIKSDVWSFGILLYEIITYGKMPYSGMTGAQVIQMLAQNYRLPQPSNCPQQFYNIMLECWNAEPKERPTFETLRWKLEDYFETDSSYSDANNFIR
Chain of UniProt P40818 (whole entry, looked up): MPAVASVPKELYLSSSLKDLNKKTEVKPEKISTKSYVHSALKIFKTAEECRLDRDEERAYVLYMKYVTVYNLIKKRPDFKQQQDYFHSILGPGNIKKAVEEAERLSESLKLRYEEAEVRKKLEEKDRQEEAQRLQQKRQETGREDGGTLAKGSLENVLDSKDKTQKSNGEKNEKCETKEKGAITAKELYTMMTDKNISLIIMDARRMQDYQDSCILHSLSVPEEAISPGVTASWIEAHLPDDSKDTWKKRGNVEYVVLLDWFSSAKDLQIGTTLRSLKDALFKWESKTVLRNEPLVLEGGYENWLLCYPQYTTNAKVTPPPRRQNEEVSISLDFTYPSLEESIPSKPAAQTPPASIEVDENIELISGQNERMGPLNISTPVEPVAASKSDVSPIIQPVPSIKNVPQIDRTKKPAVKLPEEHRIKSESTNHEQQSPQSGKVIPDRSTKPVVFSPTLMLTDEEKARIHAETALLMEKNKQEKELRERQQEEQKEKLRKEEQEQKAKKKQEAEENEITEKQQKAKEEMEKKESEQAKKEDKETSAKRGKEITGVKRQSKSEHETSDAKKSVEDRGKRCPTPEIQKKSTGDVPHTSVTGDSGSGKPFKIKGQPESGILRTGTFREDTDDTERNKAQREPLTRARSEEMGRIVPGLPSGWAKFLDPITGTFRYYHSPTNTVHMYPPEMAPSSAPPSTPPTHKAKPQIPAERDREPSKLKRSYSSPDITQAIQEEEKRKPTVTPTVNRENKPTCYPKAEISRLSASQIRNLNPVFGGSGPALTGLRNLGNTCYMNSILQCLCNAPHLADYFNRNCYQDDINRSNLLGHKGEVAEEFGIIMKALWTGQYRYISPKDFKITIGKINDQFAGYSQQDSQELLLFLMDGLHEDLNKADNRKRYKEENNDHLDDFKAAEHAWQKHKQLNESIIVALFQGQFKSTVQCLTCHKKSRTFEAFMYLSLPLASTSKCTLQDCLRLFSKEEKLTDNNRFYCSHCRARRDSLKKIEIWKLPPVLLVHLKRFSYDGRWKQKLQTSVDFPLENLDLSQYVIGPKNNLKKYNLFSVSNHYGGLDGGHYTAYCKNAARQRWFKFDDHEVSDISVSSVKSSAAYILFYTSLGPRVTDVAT

Block 1
Molecule: ubiquitin aldehyde
Read-out: enzyme activity
USP5: Ubiquitin carboxyl-terminal hydrolase 5 (USP5, Homo sapiens, UniProt P45974)
Chain of UniProt P45974 (whole entry, looked up): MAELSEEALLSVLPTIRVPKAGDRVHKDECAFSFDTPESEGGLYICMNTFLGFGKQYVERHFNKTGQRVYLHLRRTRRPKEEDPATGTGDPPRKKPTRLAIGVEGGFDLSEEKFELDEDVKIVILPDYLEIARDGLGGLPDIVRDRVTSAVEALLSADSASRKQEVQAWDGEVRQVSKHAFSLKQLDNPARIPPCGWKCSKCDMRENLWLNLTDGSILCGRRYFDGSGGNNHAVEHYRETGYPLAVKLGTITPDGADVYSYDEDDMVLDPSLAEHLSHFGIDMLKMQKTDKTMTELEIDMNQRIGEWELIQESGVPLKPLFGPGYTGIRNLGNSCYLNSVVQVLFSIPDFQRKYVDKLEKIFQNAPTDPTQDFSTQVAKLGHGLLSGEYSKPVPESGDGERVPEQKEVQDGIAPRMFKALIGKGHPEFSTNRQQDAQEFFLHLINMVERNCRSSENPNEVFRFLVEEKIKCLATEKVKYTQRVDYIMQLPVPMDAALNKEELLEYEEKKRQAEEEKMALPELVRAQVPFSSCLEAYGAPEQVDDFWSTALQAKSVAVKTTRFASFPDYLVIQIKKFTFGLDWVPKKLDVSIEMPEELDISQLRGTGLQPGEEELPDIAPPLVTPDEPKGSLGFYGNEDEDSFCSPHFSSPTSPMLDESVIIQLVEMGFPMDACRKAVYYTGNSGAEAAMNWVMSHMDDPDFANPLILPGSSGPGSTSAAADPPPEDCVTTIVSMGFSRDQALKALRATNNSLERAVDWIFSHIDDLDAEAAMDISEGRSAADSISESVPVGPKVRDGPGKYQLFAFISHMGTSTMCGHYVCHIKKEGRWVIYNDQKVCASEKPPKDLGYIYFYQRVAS
USP2: Ubiquitin carboxyl-terminal hydrolase 2 (USP2, Homo sapiens, UniProt O75604)
Chain of UniProt O75604 (whole entry, looked up): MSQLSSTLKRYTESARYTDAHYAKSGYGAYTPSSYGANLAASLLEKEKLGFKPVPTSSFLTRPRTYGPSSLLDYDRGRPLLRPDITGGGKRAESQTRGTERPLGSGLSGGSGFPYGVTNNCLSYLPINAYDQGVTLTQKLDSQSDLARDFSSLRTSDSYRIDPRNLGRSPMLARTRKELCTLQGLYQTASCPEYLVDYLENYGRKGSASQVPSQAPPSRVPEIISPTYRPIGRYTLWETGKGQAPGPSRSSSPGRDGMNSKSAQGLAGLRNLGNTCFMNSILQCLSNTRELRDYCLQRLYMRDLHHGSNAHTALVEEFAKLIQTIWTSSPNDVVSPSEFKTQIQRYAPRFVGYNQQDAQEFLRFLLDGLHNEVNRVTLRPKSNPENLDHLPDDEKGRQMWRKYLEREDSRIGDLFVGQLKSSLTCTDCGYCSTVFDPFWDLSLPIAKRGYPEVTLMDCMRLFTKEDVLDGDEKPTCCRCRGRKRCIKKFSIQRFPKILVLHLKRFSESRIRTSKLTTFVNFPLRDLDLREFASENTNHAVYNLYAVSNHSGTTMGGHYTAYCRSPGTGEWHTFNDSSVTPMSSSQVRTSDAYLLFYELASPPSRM
target	setting	inhibition [%]
USP5	1 µM	97
USP8 (Homo sapiens, UniProt P40818)	0.01 µM	11
TNFAIP3 (Homo sapiens, UniProt P21580)	0.001 µM	11
USP5	0.1 µM	57
UCHL1 (Homo sapiens, UniProt P09936)	0.001 µM	7
USP2	0.01 µM	5
USP2	0.1 µM	55
Ataxin-3 (ATXN3, Homo sapiens, UniProt P54252)	0.1 µM	30

Block 2
Target: HLA class I histocompatibility antigen, A alpha chain, allele A*26:03 (Homo sapiens, UniProt P04439)
Read-out: peptide-MHC binding
Molecule type: peptide
Tested at: concentration not given
Molecule	binding
LYNTVAVLY	inactive
RGRGVAIHR	inactive
EELRSLFNTV	inactive
SHEGEGIPL	inactive
QLKQRDALF	inactive
KVFFGPIYY	inactive
QVGIFLICK	inactive
IHLDKGGQF	inactive

Further values, each from its own experiment
SMILES	tested on	test	setting	how to read	endpoint	value
O=C1NC(=O)c2c1c1c3ccccc3n3c1c1c2c2ccccc2n1[C@H]1CC[C@@H]3O1	FRK (Homo sapiens, UniProt P42685)	enzyme activity, inhibitor	0.5 µM	reference: control	remaining activity	102%
NCC[C@H](O)C(=O)N[C@@H]1C[C@H](N)[C@@H](O[C@H]2O[C@H](CN)[C@@H](O)[C@H](O)[C@H]2O)[C@H](O)[C@H]1O[C@H]1O[C@H](CO)[C@@H](O)[C@H](N)[C@H]1O.O=S(=O)(O)O.O=S(=O)(O)O	HEK-293T-ACE2	Hoechst nuclei count	concentration not given, counter-screen	reference: vehicle	cell number	100%

A few entries again (block 2):
Molecule	binding
IHLDKGGQF	inactive
